# Experimental data of several laboratories.
# Each numbered part is a random draw from the data of one study; scales do not carry over between parts.

# Study 1
# Cell line: HEK-293T/ACE2
# Concentration: concentration not given
# Time: 16 (unit not given)
# Relative to: vehicle
Structure (SMILES),viability
C[C@H](CCC(=O)NCCS(=O)(=O)O)[C@H]1CC[C@H]2[C@@H]3[C@@H](O)C[C@@H]4C[C@H](O)CC[C@]4(C)[C@H]3CC[C@]12C,106%
CC(c1cc2ccccc2s1)N(O)C(N)=O (centres unmarked),105%
COC(=O)CCc1ccc(OCC(O)CNC(C)C)cc1 (centres unmarked),101%
O=C1NC(=O)C(c2ccccc2)(c2ccccc2)N1,102%

# Study 2
# Target: Centromere-binding protein 1, full length, N-terminal tag (CBF1, Saccharomyces cerevisiae, UniProt P17106, residues 1-351)
# UniProt P17106, sequence (whole entry, looked up): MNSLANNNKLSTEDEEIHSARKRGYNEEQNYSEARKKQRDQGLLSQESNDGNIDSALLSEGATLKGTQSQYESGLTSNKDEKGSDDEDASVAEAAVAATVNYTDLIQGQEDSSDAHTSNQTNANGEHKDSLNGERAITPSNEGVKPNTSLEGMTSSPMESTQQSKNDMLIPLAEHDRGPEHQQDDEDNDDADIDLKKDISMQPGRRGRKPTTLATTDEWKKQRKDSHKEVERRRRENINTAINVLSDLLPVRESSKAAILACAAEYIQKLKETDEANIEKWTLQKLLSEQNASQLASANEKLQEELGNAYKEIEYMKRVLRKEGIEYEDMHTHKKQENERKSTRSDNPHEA
# Technique: protein-binding microarray
# Form: double-stranded DNA, one strand shown
# Sample: in vitro
# Concentration: 0.8 µM
# Notes: whole 60-bp probe, no competitor
# Reading: higher = stronger binding
Oligonucleotide,fluorescence intensity
CTATTCTCTATAGGCATCACCATTGAAAAGTATTTCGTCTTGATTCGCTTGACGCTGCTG,563 a.u.
GAAATATGTCAGATCGACGTGACATGTAACATTTAGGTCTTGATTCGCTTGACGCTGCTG,762 a.u.
GAAAATTTATTTCCCCTCATGATAAAACAAGATTAGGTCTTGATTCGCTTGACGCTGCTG,584 a.u.
CTACGCCAAGCAAGCCTCACGAGGATCGTCGGTTTCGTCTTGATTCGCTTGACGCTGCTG,540 a.u.
GAATGCCTACGAAGGCACATGACAATCACGTAATAGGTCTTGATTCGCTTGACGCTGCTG,1320 a.u.
GAACGTCGTTGTGCACGTGACACTCACCCCAATTAGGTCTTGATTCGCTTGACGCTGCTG,21400 a.u.
CTATTGAACAATAAGCACGACCTTCATCTTAGGTTCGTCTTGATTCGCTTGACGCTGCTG,537 a.u.
GAATTCAGAGTCAACGTGATCGTTCTAACTTTCTAGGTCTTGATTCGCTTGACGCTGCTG,1890 a.u.

# Study 3
# Target: Replicase polyprotein 1ab, polymerase (rep, Severe acute respiratory syndrome coronavirus 2, UniProt P0DTD1)
# Read-out: enzyme activity
# Mode: inhibitor
# Concentration: 20 µM
SMILES,inhibition [%]
CCCC1(CCC)CCC2(CCN(CCCN(CC)CC)C2)CC1,-1.07
C[C@]12CC[C@H](O)C[C@@H]1CC[C@@H]1[C@@H]2CC[C@]2(C)C(=O)CC[C@@H]12,-5.46
CCN(CC)CCNC(=O)c1ccc(NC(C)=O)cc1,4.05
O=C(O)[C@@H](O)[C@@H](O)[C@H](O)[C@@H](O)C(=O)O,-2.37
NC(=O)Nc1cc(-c2cccc(F)c2)sc1C(=O)N[C@H]1CCCNC1,-7.63
NC(CO)(CO)CO,2.34
CCCCN1C[C@H](O)[C@@H](O)[C@H](O)[C@H]1CO,3.3
CN(C)C(=O)[C@H](O)[C@H](Cc1ccccc1)NC(=O)c1cc2cc(Cl)ccc2[nH]1,-9.9
Cc1ccnc2c1CCCC2C(N)=S (centres unmarked),-0.13
O=C(CCCCC(=O)Nc1c(I)cc(I)c(C(=O)O)c1I)Nc1c(I)cc(I)c(C(=O)O)c1I,-3.31
CC1CCN(CCCC(=O)c2ccc(F)cc2)CC1,0.52
O=C(O)c1cc(=O)c2c(OCC(O)COc3cccc4oc(C(=O)O)cc(=O)c34)cccc2o1,7.15
CCN(CC)C(=O)c1ccc(O)c(OC)c1,2.19
CN1c2c([nH]c(N)nc2=O)NC[C@@H]1CNc1ccc(C(=O)N[C@@H](CCC(=O)O)C(=O)O)cc1,3.69
C[C@H]1[C@H](C)CC[C@]2(C(=O)O)CC[C@]3(C)C(=CC[C@@H]4[C@@]5(C)C[C@@H](O)[C@H](O)C(C)(C)[C@@H]5CC[C@]43C)[C@H]12,7.7
Cn1cnc2c1c(=O)[nH]c(=O)n2C,-0.05
Cc1cccc(N2CC(CO)OC2=O)c1 (centres unmarked),0.16
Cc1ccc(-c2ncn(-c3ccc(Nc4nccc(-c5cccc(N6CCOCC6)c5)n4)cc3)n2)cn1,-1.46
Cc1ccc(S(N)(=O)=O)cc1,0.73
NC(=O)c1cn([C@@H]2O[C@H](CO)[C@@H](O)[C@H]2O)c2ncnc(N)c2c1=O,5.27
O=C(N[C@H]1CN2CCC1CC2)c1ccc2c(c1)OCCO2,-4.94
Nc1ccn([C@@H]2CS[C@H](CO)O2)c(=O)n1,-2.58
CN(C/C=C/C#CC(C)(C)C)Cc1cccc2ccccc12,-12.8
Nc1ccccc1NC(=O)c1ccc(CNc2nccc(-c3cccnc3)n2)cc1,-1.26
CCc1cc(O)c(Oc2ccc(C(N)=O)cc2F)cc1F,5.35

# Study 4
# Target: Max dimerization protein 1, bHLH-zipper, MAX partner unstated (MXD1, Homo sapiens, UniProt Q05195, residues 56-136)
# Technique: protein-binding microarray
# Form: double-stranded DNA, one strand shown
# Sample: in vitro
# Concentration: not given
# Notes: k-mer, scored over probes, only values ≥0.25
# Reading: higher = stronger binding
# Target sequence (chain): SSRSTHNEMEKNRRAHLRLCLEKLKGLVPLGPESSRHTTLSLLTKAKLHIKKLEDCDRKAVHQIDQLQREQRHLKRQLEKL
Oligonucleotide,E-score
ATGTGGCG,0.259
ATGAGGGC,0.339
CATGCACC,0.36
CACGTGAC,0.477
CGTGTACC,0.343
GGGTGACA,0.27
CACGCGCA,0.401
ATAGCATG,0.339

# Study 5
# Target: Interferon regulatory factor 5, full length, phosphomimetic (IRF5, Homo sapiens, UniProt Q13568-2, residues 1-514, K96S/S451D/S453D/S456D/S462D)
# Technique: protein-binding microarray
# Form: double-stranded DNA, one strand shown
# Sample: in vitro
# Concentration: 250 nM
# Notes: 60-bp whole probe
# Together with: salmon DNA 0.4 mg/ml
# Relative to: random background probes
# Reading: higher = stronger binding
# Shared flanks, not repeated: GCCTAGCAC … GTCTTGATTCGCTTGACGCTGCTG
Oligonucleotide,log fluorescence [z-score]
GACGGTAGCCTTCTCCTGACGTGCTAG,-0.444
TTAAATATCAGACTGGATTAGTGCTAG,0.331
CTGGCTTTGACTCTTTCTGTGTGCTAG,0.718
TTAGGTTTCCTTTTCTTTTAGTGCTAG,1.57
GACGATTTCGGGAGTGGAGACGTGCTA,1.77
GTAGGTTTCGGGACTGGGTTAGTGCTA,5.83
TCATTTTTCATTTTGTTACTGTGCTAG,2.4
TCATCTCTCTTAAATAGGACTGTGCTA,0.613

# Study 6
# Target: Replicase polyprotein 1ab, main protease (rep, Severe acute respiratory syndrome coronavirus 2, UniProt P0DTD1)
# Read-out: enzyme activity
# Mode: inhibitor
# Notes: no DTT
SMILES,IC50
Oc1cccc(-c2c3nc(c(-c4cccc(O)c4)c4ccc([nH]4)c(-c4cccc(O)c4)c4nc(c(-c5cccc(O)c5)c5ccc2[nH]5)CC4)C=C3)c1,6.6 µM
O=C1OC2(c3cc(I)c(O)c(I)c3Oc3c2cc(I)c(O)c3I)c2c(Cl)c(Cl)c(Cl)c(Cl)c21,> 20 µM
CNc1nc(Nc2cn(C(C)(C)C#N)nc2C)ncc1C(F)(F)F,9.5 µM

# Excerpt of the above (study 5):
Oligonucleotide,log fluorescence [z-score]
GTAGGTTTCGGGACTGGGTTAGTGCTA,5.83
CTGGCTTTGACTCTTTCTGTGTGCTAG,0.718
GACGGTAGCCTTCTCCTGACGTGCTAG,-0.444
TCATCTCTCTTAAATAGGACTGTGCTA,0.613
TCATTTTTCATTTTGTTACTGTGCTAG,2.4
TTAAATATCAGACTGGATTAGTGCTAG,0.331
GACGATTTCGGGAGTGGAGACGTGCTA,1.77
